# Experimental data from different studies.
# Every numbered part comes from another study and shows a few of its results, in no order.

# Study 1
# Target: RNA binding protein fox-1 homolog 2, RRM domain, GST-SBP tag (RBFOX2, Homo sapiens, UniProt O43251-10, residues 100-194)
# Method: RNA Bind-n-Seq
# Form: RNA
# Medium: in vitro
# Concentration: 365 nM
# Notes: natural RNA segment, single round, ends assumed
# Baseline: no-protein control
# Direction: higher = stronger binding
# All sequences stand within: GGGAGUUCUACAGUCCGACGAUC … UGGAAUUCUCGGGUGCCAA
# Construct (chain): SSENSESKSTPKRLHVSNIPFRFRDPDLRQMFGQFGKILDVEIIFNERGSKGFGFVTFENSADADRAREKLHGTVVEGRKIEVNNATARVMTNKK
Strand,RBNS enrichment (R)
CAAGUUUGCAGAAAGUGUCUCAGAUCGCGUUUCUGAUUGAGUGAUCCGAGCUGGACUCCUCCUGUAGGGUGGACAGACUGUAUAUUGAUAAUUCCUUCUAUGCGCAGUUU,0.646
CAGAAGCCAAGAGACCUUAUUAACUAGGCUAUAUUUUUCUUAACUUGAUCUGAAAUCCACAAUUAGACCACAAUGCACCUUUGGUUGUAUCCAUAAAGGAUGCUAGCCUG,0.459
CCCUUCCCAUCCGUCCUCCCUCAGGAACCAAGAAGUCCAAGAAGGGACGGGGCCGCUCAGGGCGUUAGGAGAAUAGAGGAAGAGAGGGCAGCUGUGAGAACCCGGCUCGU,0.291
UUUGCUGUUUUAGAAAGUGAUUCUACAAUCUCGGCUGUCAGGACAGCUGGGAUGCUUACUGUGAAAGGGUCUUGUGAGUGACUAAUGGAAUAUAUGGCUGUGAGAUUUUG,0.429
GCUAUAAGCUGCUUCAGAUAUAAAAUUGGUUUAUCUAUAAUGUUUGUUCAUUUAAUAGCUUCUAAAAGGCCUUUUUGUUAUACAGUGCUUUUUUUCUAGUUUUAUGGACU,0.458
UCUAUCUAUUUAAUUGGAUAUUGGACUCUGCUCAUAUAAGCUACAGACAAAAGCCAAAAGACUCUCGCUGUCCCUGUGCUGCUGGUAUUUCAUUCUCUGUAACUUCAGUU,0.385
UUCCUUCCGGUCUACAAGAGCUCUCAAGGCUGGGUCUGCCACCACUCUGCUUUGCCCAAGUGUGACAGCACUGGGGAGGAGAGACAGGAUAAAGGGCAGAUGUCAGCAAU,0.268
GCCUUGGAGCUCAAAUCUUUCCUUUGAUUUUUGCUCCUGAUCAUCAAGGCCCCAGUGGCAACCAUGUGGUAAGUGGCCAACCAAGCCCUACCCAGGGUCACCCAACACAC,0.247
AUGGCUUUCCCAGAAGACACUCCUGGCCAUCUGUGGAUUUGUCUGUGCACCUAUUGGCUCUUCUAGCUGACUCUUCUGGUUGGGCUUAGAGUCUGCCUGUUUCUGCUAGC,0.479
AGAAUGUGAAUAGUGCCAAGAAAAUCCUUUACAUUAUUUAAUAAAAAUUGAAUCCAUUUUCUAUCUUGAAAUGUUUUCCUUUGAGAAUACCAGAACAUUCCCUUAUUGCU,0.581
UUUUAAGAAGUUUUACUACAGGAAUGUCUACUUUUGUAAGUGACAGGUGUUAAAGGCCCAGGUGUGCUGUGCCAAAGAGCUCAGCAGAGGCUCACGUGGCCCAGGCUGGU,0.421
AAAAUGAUCCUGCAGCAGUUCUGGGCCCUAUGCCAUCCAUAAGGAUUCCUUGGGAUUCUGGUUUGGGGUGGUCAGUGCCCUCUGUGCUUUAUGGACACAAAACCAGAGCA,0.446

# Study 2
# Target: Histone acetyltransferase KAT6A, both winged helices, GST fusion (KAT6A, Homo sapiens, UniProt Q92794, residues 1-181)
# Method: protein binding microarray
# Form: double-stranded DNA, one strand shown
# Medium: in vitro
# Concentration: not given
# Notes: 8-mer, flanks averaged, mean of 2 arrays, mostly near background
# Baseline: not given
# Direction: higher = stronger binding
# Residues (chain): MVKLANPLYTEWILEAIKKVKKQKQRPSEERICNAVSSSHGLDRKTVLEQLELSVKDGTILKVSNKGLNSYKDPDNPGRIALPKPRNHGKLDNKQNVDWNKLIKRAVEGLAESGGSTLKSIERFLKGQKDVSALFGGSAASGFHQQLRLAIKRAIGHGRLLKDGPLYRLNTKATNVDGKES
Strand,E-score
AGATCGGC,0.15
ACGGCCAA,0.151
CTGGCGTA,0.0879
CGTTGATC,0.0808
CCTGAATC,-0.111
GATTGGCA,-0.222
GCGCGGCC,0.378
ACACCAAA,-0.0319
CTCATCAA,-0.053
TACAATAA,-0.0959
CAAGAACG,-0.0252
ACTGCAGA,-0.201
CCATATGC,0.00662
GACTAGGC,-0.107
GAGCTTCC,0.102
AGCCAAAG,-0.112
GCTCCTAA,-0.16
CAAACCTA,-0.233
AAACTCCC,0.0887

# Study 3
# Target: Ras GTPase-activating protein-binding protein 1, C-terminal RGG region (G3BP1, Homo sapiens, UniProt Q13283)
# UniProt Q13283, sequence (whole entry, looked up): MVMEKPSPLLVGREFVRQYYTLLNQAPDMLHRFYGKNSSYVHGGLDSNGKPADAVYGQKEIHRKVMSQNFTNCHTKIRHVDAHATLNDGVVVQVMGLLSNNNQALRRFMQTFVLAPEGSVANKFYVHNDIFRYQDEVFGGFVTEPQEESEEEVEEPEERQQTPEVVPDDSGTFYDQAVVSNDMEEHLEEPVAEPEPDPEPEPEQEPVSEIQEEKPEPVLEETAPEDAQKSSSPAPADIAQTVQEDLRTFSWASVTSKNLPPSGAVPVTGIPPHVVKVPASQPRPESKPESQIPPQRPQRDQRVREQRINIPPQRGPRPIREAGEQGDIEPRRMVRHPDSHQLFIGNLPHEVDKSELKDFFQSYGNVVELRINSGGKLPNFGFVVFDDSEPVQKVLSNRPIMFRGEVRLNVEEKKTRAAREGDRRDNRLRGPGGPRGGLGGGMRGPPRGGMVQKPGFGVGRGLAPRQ
# Method: RNA Bind-n-Seq
# Form: RNA
# Medium: in vitro
# Concentration: 1 µM
# Notes: whole 134-nt RNA, ends assumed
# Together with: 150 mM KCl
# Baseline: input library
# Direction: higher = stronger binding
# All sequences stand within: GGGAGUUCUACAGUCCGACGAUC … UGGAAUUCUCGGGUGUCAAGG
Strand,log2 enrichment
GCAGGAAGUAAAAACAAAUGGAAAUGCUUCGGAUAGUGGCAGGGGUGGGGGUUGCUAAGGAAAGGGUGGGAUGGGAGUGGGUAAAGAAUU,0.937
CACAGACAACACGCACCCACACAGACACAGAGGGAAGGGGUUGGGAUGGGGACAGGGUGCACAGCAGGGCGGGGUAGGACCCCAGAAACU,-0.332
CAAGUCCUGUGCUACACAUCGUAUGUACCGAAUCAAACCCAAAUUUAAAUUUAAAAAAGUAUUAUGUUACGCCGUUCGGAUCUGCACUUC,-0.75
GUCCUGUGCUACACAUCGUAUGUACCGAAUCGGGCCCCGGGGCCCCGGGGCCCCGGGGAAAGUAUUAUGUUACGCCGUUCGGAUCUGCAC,-1.33
UUGGGCUGCCCAUCACCGUGGCCCAUGUGGAUGGCCAAACCCACAUGUUAUUUGGCUCUGACCGGAUGGAGCUGCUGGCGCACCUGCUGG,-1.54
ACCAUGCAGGUGGGCAUCUUUGGGAAGUGGGGCAAGGGGGGGAUAGGGAGGGGGGUUACACUUUGGGAACAGGUGGUCCCAGGUCGUUUC,0.937
UUGCGCCUGUCCCGGGUGAAGUGUGUCGGCCUCUCCGCACGCACCACGGAGACCAGCAGUGCAGUCAUGUGCCUGGACCUUGCAGCUUCC,0.381
UUUUCAUACCGAUCUAGAGUUCGUCCUUGCGUGGUUUAUGGUGGUGCCGAUAUUGGUCAGCAGAUUCGAGACUUGGAACGUGGAUGCCAU,-0.00777
GUCCUGUGCUACACAUCGUAUGUACCGAAUCGGGUUUGGGAAAAAGGGUUUUUUUGGGAAAGUAUUAUGUUACGCCGUUCGGAUCUGCAC,0.625
CUCAAGUCCUGUGCUACACAUCGUAUGUACCGAAUCGGUUGGGUUGGGUUGGGAAAGUAUUAUGUUACGCCGUUCGGAUCUGCACUUCCA,0.422
UAACUUUAGAGGAGGACCUGAUGGAUAUGGCAGUGGACGUGGAUUUGGGGAUGGCUAUAAUGGGUAUGGAGGAGGACCUGGAGGUGGCAA,-0.932
AGUCCUGUGCUACACAUCGUAUGUACCGAAUCGGGGAAAAGGGGAAAAGGGGAAAAGGAAAGUAUUAUGUUACGCCGUUCGGAUCUGCAC,-0.667
UGCUUGUGUUUCUGACAGAUUCACUGCCUUCUGAGGACUUGGAUCCUGCCGAUCCCCCGAUCUCGGUAACUGUUGGCCUGAUCUGGCUGU,0.296
CACAGACAACACGCACCCACACAGACACAGAGGGAAGGGGUUGGGAUGGGGACAGGGUGCACAGCAGGGCGGGGUAGAAACCCAGCCCCU,-0.0442

# Study 4
# Target: Sal-like protein 4, full length isoform A (SALL4, Homo sapiens, UniProt Q9UJQ4, residues 1-1053)
# UniProt Q9UJQ4, sequence (whole entry, looked up): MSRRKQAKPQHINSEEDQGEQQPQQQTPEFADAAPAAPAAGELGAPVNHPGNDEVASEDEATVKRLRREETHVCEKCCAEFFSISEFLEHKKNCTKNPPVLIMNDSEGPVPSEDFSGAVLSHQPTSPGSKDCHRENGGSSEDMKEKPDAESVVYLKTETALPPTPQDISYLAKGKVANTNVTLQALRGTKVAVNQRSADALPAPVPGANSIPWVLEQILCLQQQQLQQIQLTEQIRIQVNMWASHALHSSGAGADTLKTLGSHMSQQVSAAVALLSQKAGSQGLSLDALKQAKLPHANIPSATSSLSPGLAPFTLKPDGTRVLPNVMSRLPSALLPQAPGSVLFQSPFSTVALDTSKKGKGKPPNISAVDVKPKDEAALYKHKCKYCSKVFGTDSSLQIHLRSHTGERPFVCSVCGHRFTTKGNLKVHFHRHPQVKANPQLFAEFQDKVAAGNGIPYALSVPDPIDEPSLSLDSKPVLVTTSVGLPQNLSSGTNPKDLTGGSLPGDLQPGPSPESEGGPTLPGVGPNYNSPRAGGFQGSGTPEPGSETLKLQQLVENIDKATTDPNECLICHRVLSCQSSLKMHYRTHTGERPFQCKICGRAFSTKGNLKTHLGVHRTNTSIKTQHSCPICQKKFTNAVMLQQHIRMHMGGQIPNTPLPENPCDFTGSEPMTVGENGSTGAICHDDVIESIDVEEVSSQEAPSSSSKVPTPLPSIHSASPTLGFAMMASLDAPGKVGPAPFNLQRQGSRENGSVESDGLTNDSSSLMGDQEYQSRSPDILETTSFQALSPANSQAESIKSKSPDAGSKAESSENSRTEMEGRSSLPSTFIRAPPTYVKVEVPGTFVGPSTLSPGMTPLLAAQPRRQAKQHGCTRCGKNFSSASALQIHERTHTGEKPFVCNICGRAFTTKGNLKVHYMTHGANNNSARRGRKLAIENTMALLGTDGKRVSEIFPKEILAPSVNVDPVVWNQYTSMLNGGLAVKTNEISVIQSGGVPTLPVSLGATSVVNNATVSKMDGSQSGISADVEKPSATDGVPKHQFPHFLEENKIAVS
# Method: universal PBM
# Form: double-stranded DNA, one strand shown
# Medium: in vitro
# Concentration: 600 nM
# Notes: 8-mer, flanks averaged, mean of replicates
# Direction: higher = stronger binding
Strand,E-score
GAGCATAA,0.191
TAGCGTCA,0.0261
CGACTGCG,-0.231
CATCAATG,0.0619
GGCGTGAA,-0.0858
ACCTCTAA,0.108
TAACACCA,0.17
CGTACGTC,-0.176
AGTACGGA,-0.0494
CTGATCTC,-0.166
TCATAACA,0.366
ACTGAAGC,0.0294
AGTGATCG,-0.0463
GTTAGTCA,0.164
CTATGTAA,0.247
CAATTTAG,0.132
TGAACTCA,0.019

# Study 5
# Target: Interferon regulatory factor 7, full length, phosphomimetic (IRF7, Homo sapiens, UniProt Q92985, residues 1-503, S471D/S472D/S475D/S476D/S477D/S483D/S484D/S487D)
# Method: protein-binding microarray
# Form: double-stranded DNA, one strand shown
# Medium: in vitro
# Concentration: 2200 nM top
# Notes: 60-bp whole probe
# Together with: salmon DNA 0.4 mg/ml
# Baseline: random background probes
# Direction: higher = stronger binding
# All sequences stand within: GCCTAGCAC … GTCTTGATTCGCTTGACGCTGCTG
# Residues (chain): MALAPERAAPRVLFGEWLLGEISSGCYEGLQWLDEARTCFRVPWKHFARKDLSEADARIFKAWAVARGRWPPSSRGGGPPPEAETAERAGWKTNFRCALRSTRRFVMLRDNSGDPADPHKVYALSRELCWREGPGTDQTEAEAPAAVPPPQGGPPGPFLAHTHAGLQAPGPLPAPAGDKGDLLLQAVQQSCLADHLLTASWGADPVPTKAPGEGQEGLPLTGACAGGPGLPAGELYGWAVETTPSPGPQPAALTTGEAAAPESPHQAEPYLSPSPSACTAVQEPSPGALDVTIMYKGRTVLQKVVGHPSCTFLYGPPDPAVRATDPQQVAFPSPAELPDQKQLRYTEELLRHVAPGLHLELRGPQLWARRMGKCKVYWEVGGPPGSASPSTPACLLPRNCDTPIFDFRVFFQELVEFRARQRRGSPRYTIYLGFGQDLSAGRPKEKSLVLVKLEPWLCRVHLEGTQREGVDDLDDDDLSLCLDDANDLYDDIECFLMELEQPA
Strand,fitted relative affinity [z-score]
ATGATTGGTTGAACATGAACGTGCTAG,0.52
TTAGATTTCGGTTTTCGATTAGTGCTA,9.41
TTTGCTTTAGTCATTCACTGAGTGCTA,1.18
TTAGGTATCGGTTGCGGTTAGTGCTAG,1.19
CCGGGTTTCACCATGTTGGCGTGCTAG,1.42
GGTGATTTCAGTTTTCTTTTGTGCTAG,4.01
TTAGATTTCAGTTTCTATTAGTGCTAG,4.03
TTAGGTATCGACACTGGTTTAGTGCTA,0.11
GGGTCACTCAATCTCAACAGGTGCTAG,0.061
GACGGTATCGACACTGGGGAGGTGCTA,-0.435
TTAGAATTCAGTTTCGATTAGTGCTAG,6.24
GACGGAATCGGTTTCGGGACGTGCTAG,4.56
GACCATATCAGTTTCGAGACGTGCTAG,4.04
TCAACTTTCTTTTGCTTACTGTGCTAG,2.74
TCATCTCTAGAAATTCCCACTGTGCTA,0.716
GACGGTCTCGGTCTCGGTACGTGCTAG,0.261
CAAGGAACTCAGAGATTTAAGTGCTAG,-1.25
GACGGTATCGGTCTCAGGACGTGCTAG,0.287

# Repeated from above (study 2):
Strand,E-score
AGATCGGC,0.15
ACGGCCAA,0.151
CTGGCGTA,0.0879
CGTTGATC,0.0808
CCTGAATC,-0.111
GATTGGCA,-0.222
GCGCGGCC,0.378
ACACCAAA,-0.0319
CTCATCAA,-0.053
TACAATAA,-0.0959
CAAGAACG,-0.0252
